Measurements gathered from unrelated publications.
Parts stem from different laboratories: compare values within a part only. Changes are numbered by the printed parent chain.
Chain of UniProt Q9XFM0 (whole entry, looked up): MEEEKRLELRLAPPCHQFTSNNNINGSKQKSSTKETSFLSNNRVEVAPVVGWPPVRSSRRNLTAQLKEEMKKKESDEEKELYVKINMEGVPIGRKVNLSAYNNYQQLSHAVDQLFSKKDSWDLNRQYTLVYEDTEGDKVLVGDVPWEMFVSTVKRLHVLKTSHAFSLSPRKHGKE
Chain of UniProt Q9FX25 (whole entry, looked up): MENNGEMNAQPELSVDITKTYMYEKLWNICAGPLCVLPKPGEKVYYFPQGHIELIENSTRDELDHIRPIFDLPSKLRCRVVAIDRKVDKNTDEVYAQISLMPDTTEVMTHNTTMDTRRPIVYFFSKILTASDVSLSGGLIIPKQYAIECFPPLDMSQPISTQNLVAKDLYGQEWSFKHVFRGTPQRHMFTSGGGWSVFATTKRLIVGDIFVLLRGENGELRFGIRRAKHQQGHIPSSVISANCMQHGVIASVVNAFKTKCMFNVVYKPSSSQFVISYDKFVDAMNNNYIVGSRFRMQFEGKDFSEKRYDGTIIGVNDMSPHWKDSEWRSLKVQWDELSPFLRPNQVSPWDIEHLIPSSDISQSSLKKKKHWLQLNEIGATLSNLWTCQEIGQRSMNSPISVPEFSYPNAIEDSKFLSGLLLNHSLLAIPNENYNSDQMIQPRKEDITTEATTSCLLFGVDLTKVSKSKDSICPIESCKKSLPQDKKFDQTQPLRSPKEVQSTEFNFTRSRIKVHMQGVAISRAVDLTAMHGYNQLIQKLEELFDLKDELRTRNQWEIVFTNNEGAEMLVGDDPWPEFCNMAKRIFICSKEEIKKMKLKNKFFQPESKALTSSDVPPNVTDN

Series 1 — Molecule: B1 (IAA7); technique: two-hybrid; reading: higher = firmer interaction
B1: IAA7 (Arabidopsis thaliana, UniProt Q38825); chain MIGQLMNLKATELCLGLPGGAEAVESPAKSAVGSKRGFSETVDLMLNLQSNKEGSVDLKNVSAVPKEKTTLKDPSKPPAKAQVVGWPPVRNYRKNMMTQQKTSSGAEEASSEKAGNFGGGAAGAGLVKVSMDGAPYLRKVDLKMYKSYQDLSDALAKMFSSFTMGNYGAQGMIDFMNESKLMNLLNSSEYVPSYEDKDGDWMLVGDVPWEMFVESCKRLRIMKGSEAVGLAPRAMEKYCKNRS
partner	relative to	positive tests
IAA9 (Arabidopsis thaliana, UniProt Q38827)	out of 2 tests	0
ARF13 (Arabidopsis thaliana, UniProt Q9FX25)	out of 4 tests	0
IAA14 (Arabidopsis thaliana, UniProt Q38832)	out of 4 tests	0
IAA28 (Arabidopsis thaliana, UniProt Q9XFM0)	out of 3 tests	2

Series 2 — technique: DHFR PCA, deep sequencing; medium: yeast; with: (+)-ABA 0.11 µM; relative to: wild-type fitted maximum; reading: higher = stronger binding
Target: ABI1, truncated, D143A, DHFR fusion (Arabidopsis thaliana)
Notes: methotrexate growth selection, single substitutions
Starting sequence: PYL1, truncated, DHFR fusion (Arabidopsis thaliana); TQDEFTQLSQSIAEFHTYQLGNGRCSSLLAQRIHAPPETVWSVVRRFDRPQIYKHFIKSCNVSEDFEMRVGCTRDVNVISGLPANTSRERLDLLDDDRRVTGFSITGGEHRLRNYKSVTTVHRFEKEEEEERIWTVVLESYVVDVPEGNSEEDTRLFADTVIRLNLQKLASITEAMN
Change	relative binding score [%]
Y53H	6.83
L29I	44.9
H55F	15.7
R74I	1.73
R113L	16.4
T154D	-8.93
S104W	-12.2
P146C	14.7
E151M	34.1
V40W	5.24
R45V	-1.83
D3N	24.4
T119V	-2.07
D144K	-6.64
Q51N	0.731
T135V	-4.72
M176L	23.3
T106F	14.2
V100W	-5.72
E89V	-0.222
T86F	32.2
T39M	34.2
A158K	-16.3
S87E	-3.54
R90Y	-8.83

Series 3 — target: CREB3, bZIP domain (human); technique: DHFR protein complementation; medium: yeast; relative to: wild-type JUN-FOS pair; reading: higher = stronger binding
Notes: single substitutions, most at no-binding floor
Starting sequence: JUN, bZIP domain (human); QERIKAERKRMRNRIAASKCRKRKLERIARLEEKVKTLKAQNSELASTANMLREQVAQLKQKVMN; partner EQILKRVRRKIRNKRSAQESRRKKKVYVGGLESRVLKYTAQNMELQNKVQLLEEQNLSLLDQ
Change	binding fitness
S47A	-1.34 natural log
A40C	-1.5 natural log
T37Y	-1.39 natural log
K39Q	-1.54 natural log
T37A	-1.48 natural log
Q41R	-1.46 natural log
L52V	-1.54 natural log
T48G	-1.47 natural log
K39H	-1.48 natural log
A46E	-1.13 natural log
S43P	-1.51 natural log
L45M	-1.55 natural log
R53G	-1.49 natural log
S47R	-1.43 natural log

Series 4 — target: UBE2E3 UBC core domain (UniProt Q969T4); technique: yeast two-hybrid; medium: yeast; notes: mostly zero background; relative to: not given; reading: higher = stronger interaction
Chain of UniProt Q969T4 (whole entry, looked up): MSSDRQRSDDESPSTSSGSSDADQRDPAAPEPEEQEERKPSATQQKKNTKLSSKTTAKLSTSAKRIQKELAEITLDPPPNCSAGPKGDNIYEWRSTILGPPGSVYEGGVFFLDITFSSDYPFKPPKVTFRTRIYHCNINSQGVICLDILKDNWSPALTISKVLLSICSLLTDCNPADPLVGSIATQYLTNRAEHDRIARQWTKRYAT
B2: RNF170 RING domain (UniProt Q96K19); chain TRQQFYTDMYCPICLHQASFPVETNCGHLFCGACIIAYWRYGSWLGAISCPICRQTVTLLLTVF
B3: CUL9 RING domain (UniProt Q8IWT3); chain AQAVPVRPDHCPVCVSPLGCDDDLPSLCCMHYCCKSCWNEYLTTRIEQNLVLNCTCPIADCPAQPTGAFIR
B4: RC3H2 RING domain (UniProt Q9HBD1); chain QAAQWTEFLSCPICYNEFDENVHKPISLGCSHTVCKTCLNKLHRKACPFDQTAINTDIDVL
B5: PHF21A RING domain (UniProt Q96BD5); chain SPTSTDGDIHEDFCSVCRKSGQLLMCDTCSRVYHLDCLDPPLKTIPKGMWICPRCQDQMLKKEEAIPW
B6: TRIM63 RING domain (UniProt Q969Q1); chain PMENLEKQLICPICLEMFTKPVVILPCQHNLCRKCANDIFQAANPYWTSRGSSVSMSGGRFRCPTCRHEVIMDRHGV
Molecule	lacZ reporter activity
PEELQAMDNVCIICREEMVTGAKRLPCNHIFHTSCLRSWFQRQQTCPTCRMDVLRASLPA (SYVN1 RING domain (UniProt Q86TM6))	0
YWAMDSTFELCKICAESNKDVKIEPCGHLLCSCCLAAWQHSDSQTCPFCRCEIKGWEAVS (CBLC RING domain (UniProt Q9ULV8))	0
B2 (RNF170 RING domain)	0
QLRRLQEERTCKVCMDKEVSVVFIPCGHLVVCQECAPSLRKCPICRGIIKGTVRTF (BIRC2 RING domain (UniProt Q13490))	0
B3 (CUL9 RING domain)	0
B4 (RC3H2 RING domain)	0
B5 (PHF21A RING domain)	0
KTLSRFGIQPCSICLGDAKDPVCLPCDHVHCLRCLRAWFASEQMICPYCLTALPDEFSPA (RNF213 RING domain (UniProt Q63HN8))	0
QHHELTSLFECPVCFDYVLPPILQCQAGHLVCNQCRQKLSCCPTCRGALTPSIRNL (SIAH2 RING domain (UniProt O43255))	0
QLRRLQEERTCKVCMDKEVSIVFIPCGHLVVCKDCAPSLRKCPICRSTIKGTVRTF (BIRC3 RING domain (UniProt Q13489))	0
VTLSLTLPITCHICLGKVRQPVICINNHVFCSICIDLWLKNNSQCPACRVPITPENPCK (OBI1 RING domain (UniProt Q5W0B1))	0
B6 (TRIM63 RING domain)	0

Series 5 — target: CCNE1, cyclin fold, Cln2 fusion (human); technique: yeast growth competition, sequencing; medium: yeast; notes: strong parent motif; relative to: not given; reading: higher = stronger binding
Starting sequence: RBL2 docking peptide (human); STTRRRLFVENDS; partner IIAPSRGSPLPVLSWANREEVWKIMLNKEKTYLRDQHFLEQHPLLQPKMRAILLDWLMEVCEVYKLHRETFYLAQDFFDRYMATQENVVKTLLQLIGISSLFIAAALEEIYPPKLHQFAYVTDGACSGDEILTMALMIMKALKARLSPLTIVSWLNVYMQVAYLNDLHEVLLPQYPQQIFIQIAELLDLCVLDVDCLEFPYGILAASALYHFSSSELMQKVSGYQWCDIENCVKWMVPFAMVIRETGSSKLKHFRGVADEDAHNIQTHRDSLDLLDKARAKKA
Change	normalised enrichment score
STTRRRLFQENDS [V9Q]	5.59
PTTRRRLFVENDS [S1P]	5.7
STTRPRLFVENDS [R5P]	0.253
STTRRRLFVENAS [D12A]	4.59
STTRRRLCVENDS [F8C]	-0.366
STTRRRLFVRNDS [E10R]	1.65
STTRRRLDVENDS [F8D]	0.184
STTRTRLFVENDS [R5T]	1.47
STTRRSLFVENDS [R6S]	0.575
STTRRRLGVENDS [F8G]	-0.0608
STTRRRLVVENDS [F8V]	-0.165
CTTRRRLFVENDS [S1C]	6.72
STIRRRLFVENDS [T3I]	5.02
STTRRRLFVGNDS [E10G]	4.05
STTRRRCFVENDS [L7C]	0.237
QTTRRRLFVENDS [S1Q]	5.91
STTRRRLFMENDS [V9M]	6

Excerpt of the above (series 3):
Change	binding fitness
K39H	-1.48 natural log
T37Y	-1.39 natural log
R53G	-1.49 natural log
S47A	-1.34 natural log
T48G	-1.47 natural log
L45M	-1.55 natural log
